Assay results collected from several papers.
Lines come from different studies, so protocols differ. Numbers after ± are the reported error.

Structure (SMILES)	test	system	setting	how to read	quantity	value
CCC(=O)N(CCC(c1ccc2c(c1)OCO2)c1ccccc1OC)Cc1ccccc1 (centres unmarked)	–	female athymic nude mouse, blood	i.p., 60 mg/kg twice daily, 14 days, group mean	–	TBIL	0.1 mg/dL
CCN1/C(=C/C(C)=O)Sc2ccc(F)cc21	–	cynomolgus monkey	oral, 10 mg/kg, 0.5 h post-dose	–	PR interval	90 ± 4 ms
CC(C)(C)c1ccc(C(O)CCCN2CCC(C(O)(c3ccccc3)c3ccccc3)CC2)cc1 (centres unmarked)	–	male Hartley guinea pigs, anaesthetized	intravenous, 0.3 mg/kg group, baseline before infusion	–	heart rate	218 ± 0.2 beats/min
O=C(Nc1cnccc1Cl)N1CCN(Cc2ccc3c(c2)OC(F)(F)O3)CC1	item: Fatigue	healthy elderly humans	100 mg once daily, 10 days	–	volunteers with adverse event	33.3%
C[C@@H](N)C1CCN(S(=O)(=O)c2cccc3cnccc23)CC1	–	healthy volunteers	25 mg, fasted	–	participants with mental impairment	0%
CC(=O)N(C)[C@H]1CCN(C(=O)c2cnc3c(c2)C[C@](C)(c2ccc(F)cc2)N3)C1	item: painful arm	human	oral, 30 mg once daily	–	adverse event duration	3 days
CCC(C)n1ncn(-c2ccc(N3CCN(c4ccc(OCC5COC(Cn6cncn6)(c6ccc(Cl)cc6Cl)O5)cc4)CC3)cc2)c1=O (centres unmarked)	–	human, plasma	oral, dose not given, day 12 predose, mean	–	trough plasma concentration	72.2 ng/mL
CCOc1c([C@H](C)n2nc(C)c3c(N)ncnc32)cc(Cl)c(F)c1[C@@H]1CNC(=O)C1	–	human Hodgkin lymphoma patients	oral, 30 mg, day 15	–	Cmax	2.26 µM
OCCc1ccc(O)cc1	–	human CSF	concentration not given, mean	–	CSF concentration	not detected
CO[C@@H]1[C@H](OC(=O)N2CC(CCN3CCOCC3)C2)CC[C@]2(CO2)[C@H]1[C@@]1(C)O[C@@H]1CC=C(C)C	–	humans	subcutaneous, 0.2 mg twice weekly for 4 weeks, day 28	relative to: baseline	systolic blood pressure	-4 ± 5.9 mmHg
CCCCCCCCN(Cc1ccccc1)Cc1ccc(CNC(=O)c2csc3nc[nH]c(=O)c23)cc1	haemolysis	human red blood cells	1 h, 37 °C	–	EC50	> 100 µM
C=CC(=O)N(C)CCOc1c(N)ncnc1-c1cc(F)cc(NC(=O)c2ccc(C3CC3)cc2F)c1C	–	human	oral, 50 mg, day 3, arithmetic mean, given alone	–	Cmax per dose	2.77 ng/mL/mg
CN(CCC(=O)O)C(=O)c1ccc2c(c1)CC[C@@H]1[C@@H]2CC[C@]2(C)C(c3cncc(F)c3)=CC[C@@H]12	–	premenopausal women with endometriosis pain, serum	60 mg twice daily, end of treatment, completers, mean	relative to: baseline	indirect bilirubin change	0.35 mg/dL
Cc1ccc([C@@H]2O[C@H](CO)[C@@H](O)[C@H](O)[C@H]2O)cc1Cc1ccc(-c2ccc(F)cc2)s1	–	Japanese type 2 diabetes patients	400 mg, day 18, 24 h urine collection	relative to: baseline	urinary magnesium excretion change	10.9 mg
Cc1c(Cl)c(C)[n+]([O-])c(Cl)c1-c1noc(-c2cc(O)c(O)c([N+](=O)[O-])c2)n1	–	healthy Caucasian subjects	oral, 25 mg	–	TEAEs causing discontinuation	0%
CO[C@H]1C[C@@H]2CC[C@@H](C)[C@@](O)(O2)C(=O)C(=O)N2CCCC[C@H]2C(=O)O[C@H]([C@H](C)C[C@@H]2CC[C@@H](O)[C@H](OC)C2)CC(=O)[C@H](C)/C=C(\C)[C@@H](O)[C@@H](OC)C(=O)[C@H](C)C[C@H](C)/C=C/C=C/C=C/1C	–	healthy adult horses	oral, 0.06 mg/kg, 8 h	–	rectal temperature	37.7 ± 0.3 °C
C[C@@H]1CN(CC(=O)N2CC(C)(C)c3ncc(Cc4ccc(F)cc4)cc32)[C@@H](CN2CCOC[C@H]2C)CN1	–	male cynomolgus monkey	oral, 30 mg/kg	–	oral bioavailability	4 ± 0.54%
CNCc1ccc(-c2[nH]c3cc(F)cc4c3c2CCNC4=O)cc1	–	patients	oral, 480 mg twice daily, all grades	–	anaemia incidence	33.3%
N#Cc1ccc2c(c1)[C@H]1CCCN(C(=O)c3ccc4[nH]cnc4c3)[C@H]1C2	–	human, plasma	20 mg once daily, day 7	–	pre-dose plasma concentration	506 nmol/L

Structure (SMILES)	test	system	setting	how to read	quantity	value
C[C@@H]1CN(c2c(F)c(N)c3c(=O)c(C(=O)O)cn(C4CC4)c3c2F)C[C@H](C)N1	–	male Hartley guinea pigs, anaesthetized	intravenous, 30 mg/kg over 10 min, after infusion	–	heart rate	197 ± 0.6 beats/min
CCN1CCN(Cc2ccc(Nc3ncc(F)c(-c4cc(F)c5nc6n(c5c4)[C@H](C)CCC6)n3)nc2)CC1	–	human, plasma	400 mg multiple dosing, mean	–	AUC(0-tau)	7690 ng·h/mL
COc1ccnc(C(=O)NC(CO)C(=O)O)c1O (racemic)	–	Swiss Lake sand sediment, aerobic dark	20 °C	–	DT50 whole system	53.7 days
COc1ccc2c(=O)n(C)c(-c3ccccc3)nc2c1	–	Sprague-Dawley rat, male, small intestine	oral, 30 mg/kg, 2 h	–	concentration	4630 ng/mL
C[C@@H](O)CCOC(=O)C[C@@H](C)O	–	human	oral drink, dose not given, 240 min post dose, mean	–	systolic blood pressure	115 mmHg
N#Cc1ccc2c(c1)[C@H]1CCCN(C(=O)c3ccc4[nH]cnc4c3)[C@H]1C2	–	human females	80 mg, day 7	–	SHBG level	51.4 nmol/L
Cn1cc(Nc2nccc(-c3ccc4c(c3)CN(C3COC3)CC[C@H]4NC(=O)c3cn(C(C)(C)C)nn3)n2)cn1	item: Lymphocytes count	human, clinical trial, whole blood	50 mg twice daily, follow-up	–	percent change from baseline	-3.87%
COc1ccc2nc([S@@+]([O-])Cc3ncc(C)c(OC)c3C)[nH]c2c1	–	human male, dried plasma spots	oral, 5 mg racemic omeprazole	–	AUC(0-8 h)	0.235 µM·h
C=CC(=O)N1CCC[C@@H](n2nc(-c3ccc(Oc4ccccc4)cc3)c3c(N)ncnc32)C1	USP type II dissolution	powder	120 min, pH 6.8	–	dissolved amount	7.48%
CN(C(=O)n1cnc(-c2cccnc2)c1)C1CCCCC1	–	Wistar rat, cerebral cortex	oral, 10 mg/kg, 4 h, single dose	–	tissue concentration	35.8 ± 6.8 ng/g
C[C@H]1[C@H]2N(C(=O)CN(C)N2C(=O)NCc2ccccc2)[C@@H](Cc2ccc(OP(=O)(O)O)cc2)C(=O)N1Cc1cccc2cccnc12	–	human, plasma	intravenous infusion over 4 h, 140 mg/m2, 24 h after dosing	–	plasma concentration	0 ng/mL
CCN1CCN(Cc2ccc(NC(=O)c3ccc(C)c(NC(=O)c4cncc(-c5cccs5)c4)c3)cc2C(F)(F)F)CC1	LC-MS/MS	C57BL/6 mouse, plasma	intraperitoneal, 30 mg/kg single dose, 1 h	–	mean plasma concentration	535 ng/mL
CC(C)(C(=O)N1CCOc2c(C#N)cncc2C1)C(F)F	–	human, both sexes	oral, 20 mg single dose	–	subjects with headache TEAE	16.7%
COc1ncc(-c2nc3c(n2C(C)C)[C@H](c2ccc(Cl)cc2)N(c2cc(Cl)cn(C)c2=O)C3=O)c(OC)n1	–	human patients, plasma	oral, 15 mg, low-dose arm, cycle 2 day 1	–	median Tmax	4.1 h
[18F]c1ccc(-c2ccc3c(c2)[nH]c2ccncc23)cn1	ex vivo biodistribution	normal B6SJL mice, brain stem	intravenous, 30 min	–	uptake	0.484 ± 0.177 SUV
C[C@@H](Nc1cc(F)cc(F)c1)c1cc(C(=O)N(C)C)cc2c(=O)cc(N3CCOCC3)oc12	item: confusional state	patients with advanced solid tumours	oral, dose not given, dose finding phase I	–	treatment-related serious adverse events	0%
Cc1ccc(OS(=O)(=O)O)c(O)c1	–	human CSF	concentration not given, mean	–	CSF concentration	not detected
CNC(=O)c1ccc(-c2cnc3ncc(Cc4ccc5ncccc5c4)n3n2)cc1F	item: Pyrexia, all grades	gastric cancer patients	oral, 600 mg twice daily, expansion cohort, any causality	–	patients with adverse event	22%
CO[C@H]1/C=C/O[C@@]2(C)Oc3c(C)c(O)c4c(c3C2=O)C2=NC3(CCN(CC(C)C)CC3)NC2=C(NC(=O)/C(C)=C/C=C/[C@H](C)[C@H](O)[C@@H](C)[C@@H](O)[C@@H](C)[C@H](OC(=O)Nc2c(C)nc3ccccn23)[C@@H]1C)C4=O	–	CD-1 mouse	dose not given	–	volume of distribution	4.6 L/kg

Structure (SMILES)	test	system	setting	how to read	quantity	value
CN(CCC#N)C1CCN(C(=O)Cn2cc(NC(=O)c3cnn4cccnc34)c(-c3cc(Cl)ccc3OC(F)F)n2)CC1	–	human, single ascending dose	15 mg, day 4	relative to: baseline	reticulocyte count change	11 10⁹/L
C[C@@H](NC(=O)N1C(=O)[C@H](Cc2ccnc(N)c2)[C@H]1C(=O)O)C1CCCCC1	UPLC-MS/MS	healthy adult Chinese volunteers, plasma	continuous intravenous infusion, 1.5 mg/kg/h, day 1 of 5-day infusion, median	–	time to steady state	1.5 h
O=C(N[C@H](Cc1c[nH]c2ccccc12)C(=O)Nc1ccncc1)c1ccc(N2CCN(c3ccc(F)cc3F)CC2)cc1F	–	Swiss Webster mouse, female, muscle	oral, 50 mg/kg, 8 h, 20% HPβCD vehicle	–	concentration	3.75 µM
Cc1cc(NC2CCN(C(=O)OC3CCN(C(=O)/C=C/CN(C)C)C3)CC2)n2ncc(C(C)C)c2n1 (centres unmarked)	–	patients with advanced solid tumours	dose not given, QD arm, any grade	–	patients with Constipation	5%
CCCCN1CCN(C(C)C(=O)Nc2c(C)csc2C(=O)OC)CC1 (centres unmarked)	–	rat (Sprague-Dawley, male), plasma	subcutaneous, 62.3 mmol/L	–	MRT(0-t)	1.56 h
NC1(C(=O)N[C@@H](CCO)c2ccc(Cl)cc2)CCN(c2nc[nH]c3nccc2-3)CC1	–	metastatic CRPC patients	480 mg b.i.d., grade 3 to 4, treatment-related, with: enzalutamide 160 mg daily	–	incidence of Erythema	0%
CCOC(=O)C1=C(CN2CCC[C@@H]2C(=O)Nc2ccc(B(O)O)cc2)NC(c2nccs2)=N[C@H]1c1ccc(F)cc1Br	–	ICR mouse, plasma	intravenous, 2 mg/kg	–	volume of distribution (Vz)	4.7 ± 1.26 L/kg
O=C(O)CCc1ccc(O)cc1O	–	human CSF	concentration not given, mean	–	CSF concentration	not detected
CN[C@H](CC(C)C)C(=O)N[C@H]1C(=O)N[C@@H](CC(N)=O)C(=O)N[C@H]2C(=O)N[C@H]3C(=O)N[C@H](C(=O)N[C@H](C(=O)O)c4cc(O)cc(O)c4-c4cc3ccc4O)[C@H](O)c3ccc(c(Cl)c3)Oc3cc2cc(c3O[C@@H]2O[C@H](CO)[C@@H](O)[C@H](O)[C@H]2O[C@H]2C[C@](C)(N)[C@H](O)[C@H](C)O2)Oc2ccc(cc2Cl)[C@H]1O	electrochemical aptamer sensor	male C57BL/6J mouse, cortex	intravenous bolus, 35 mg/kg	–	absorption rate constant	2.14 h⁻¹
O=C(COc1ccc(Cl)cc1)NC12CC(c3nnc([C@H]4C[C@@H](OC(F)(F)F)C4)o3)(C1)C2	item: postural dizziness	human	oral, 100 mg once daily, 14 days	–	adverse event incidence	14.3%
CCO[C@H]1CCN(Cc2c(OC)cc(C)c3[nH]ccc23)[C@H](c2ccc(C(=O)O)cc2)C1	–	human mild hepatic impairment, plasma	oral, 200 mg single dose, median	–	unbound AUCinf	5790 ng·h/mL
CNC(=O)c1ccc(-c2cnc3ncc(Cc4ccc5ncccc5c4)n3n2)cc1F	–	Japanese patients	oral, 400 mg, any grade	–	Urticaria treatment discontinuation	1%
COc1c(N2C[C@@H]3CCCN[C@@H]3C2)c(F)cc2c(=O)c(C(=O)O)cn(C3CC3)c12	–	male Hartley guinea pigs, anaesthetized	intravenous, 10 mg/kg group, baseline before infusion	–	heart rate	249 ± 0.3 beats/min
Cc1ccc(O)c(O)c1	–	human CSF	concentration not given, mean	–	CSF concentration	not detected
O=C1c2ccncc2C(=O)c2c1[nH]c1ccccc21	–	Sprague-Dawley rat, female, lung	oral, 5 mg/kg, 24 h	–	tissue concentration	0.021 ± 0.03 nmol/mg
CC(C)NCC(O)c1ccc(NS(C)(=O)=O)cc1 (racemic)	–	male Hartley guinea pigs, anaesthetized	intravenous, 10 mg/kg over 10 min, after infusion	–	heart rate	150 ± 0.6 beats/min
NC/C(=C\F)COc1cccc(Cn2c(=S)[nH]c(=O)c3[nH]cnc32)c1	–	rat hepatocytes	1 µM, 1 h	–	remaining compound	90%
COc1cc(C(=O)N2CCC3(CC2)CC(=O)c2c(cnn2C(C)C)C3)cc(-c2ccc(C(=O)O)cc2)n1	item: total cholesterol	human, fasting serum	3 mg every 12 h, day 13, adjusted geometric mean	relative to: baseline and placebo	placebo-adjusted change from baseline	2.4%

A few entries again:
Structure (SMILES)	test	system	setting	how to read	quantity	value
CCN1CCN(Cc2ccc(Nc3ncc(F)c(-c4cc(F)c5nc6n(c5c4)[C@H](C)CCC6)n3)nc2)CC1	–	human, plasma	400 mg multiple dosing, mean	–	AUC(0-tau)	7690 ng·h/mL
COc1ccnc(C(=O)NC(CO)C(=O)O)c1O (racemic)	–	Swiss Lake sand sediment, aerobic dark	20 °C	–	DT50 whole system	53.7 days
COc1ccc2c(=O)n(C)c(-c3ccccc3)nc2c1	–	Sprague-Dawley rat, male, small intestine	oral, 30 mg/kg, 2 h	–	concentration	4630 ng/mL
C[C@@H](O)CCOC(=O)C[C@@H](C)O	–	human	oral drink, dose not given, 240 min post dose, mean	–	systolic blood pressure	115 mmHg
N#Cc1ccc2c(c1)[C@H]1CCCN(C(=O)c3ccc4[nH]cnc4c3)[C@H]1C2	–	human females	80 mg, day 7	–	SHBG level	51.4 nmol/L
Cn1cc(Nc2nccc(-c3ccc4c(c3)CN(C3COC3)CC[C@H]4NC(=O)c3cn(C(C)(C)C)nn3)n2)cn1	item: Lymphocytes count	human, clinical trial, whole blood	50 mg twice daily, follow-up	–	percent change from baseline	-3.87%
COc1ccc2nc([S@@+]([O-])Cc3ncc(C)c(OC)c3C)[nH]c2c1	–	human male, dried plasma spots	oral, 5 mg racemic omeprazole	–	AUC(0-8 h)	0.235 µM·h
C=CC(=O)N1CCC[C@@H](n2nc(-c3ccc(Oc4ccccc4)cc3)c3c(N)ncnc32)C1	USP type II dissolution	powder	120 min, pH 6.8	–	dissolved amount	7.48%
